Measured values gathered from unrelated publications.
Every numbered part comes from another study and shows a few of its results, in no order. Positions count from the first letter of the parent shown.

Series 1
Target: Ras GTPase-activating protein-binding protein 1, full length (G3BP1, Homo sapiens, UniProt Q13283)
UniProt Q13283, sequence (whole entry, looked up): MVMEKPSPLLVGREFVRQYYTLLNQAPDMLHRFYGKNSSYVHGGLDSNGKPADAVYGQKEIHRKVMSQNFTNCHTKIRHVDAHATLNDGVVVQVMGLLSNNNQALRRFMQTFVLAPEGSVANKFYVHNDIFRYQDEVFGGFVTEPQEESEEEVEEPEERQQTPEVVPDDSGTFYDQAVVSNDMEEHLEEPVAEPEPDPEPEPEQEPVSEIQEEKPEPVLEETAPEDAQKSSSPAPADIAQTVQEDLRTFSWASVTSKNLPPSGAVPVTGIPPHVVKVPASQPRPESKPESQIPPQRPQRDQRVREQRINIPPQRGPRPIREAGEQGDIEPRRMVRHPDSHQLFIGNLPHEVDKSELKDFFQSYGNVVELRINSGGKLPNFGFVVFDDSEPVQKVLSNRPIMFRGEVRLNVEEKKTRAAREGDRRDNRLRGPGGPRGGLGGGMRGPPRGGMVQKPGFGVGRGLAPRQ
Technique: RNA Bind-n-Seq
Molecule type: RNA
Sample: in vitro
Tested at: 200 nM
Setting: whole 134-nt RNA, ends assumed
Together with: 150 mM LiCl
Baseline: input library
Direction: higher = stronger binding
Quantity: log2 enrichment
Library: 7-deaza-guanosine replaces G
Constant ends, left off below: GGGAGUUCUACAGUCCGACGAUC … UGGAAUUCUCGGGUGUCAAGG
CUGUGCUACACAUCGUAUGUACCGAAUCGGGGUUUGGGGUUUUUUUGGGGAAAAAAAGGGGAAAGUAUUAUGUUACGCCGUUCGGAUCUG: 0.276
CUCAAGUCCUGUGCUACACAUCGUAUGUACCGAAUCGGCCGGGCCGGGCCGGGGAAAGUAUUAUGUUACGCCGUUCGGAUCUGCACUUCC: 0.532
AGUCCUGUGCUACACAUCGUAUGUACCGAAUCAAACCCCCAAACCCCCAAACCCAAAAAAGUAUUAUGUUACGCCGUUCGGAUCUGCACU: -0.00495
UCCUCAAGUCCUGUGCUACACAUCGUAUGUACCGAAUCGGGCGGCGGGGCGGAAAGUAUUAUGUUACGCCGUUCGGAUCUGCACUUCCAG: 0.395
CAAGUCCUGUGCUACACAUCGUAUGUACCGAAUCGGGUUUGGUUUGGGUUUGGGGAAAGUAUUAUGUUACGCCGUUCGGAUCUGCACUUC: -0.584
UGGGAGGUGGAUUUUGUUUAUUUUUUUAGCUCAUUUCCACGGGUGGGAAUUUUUUUUUAAUAUGUGUCAUGAAUAAAGUUGUUUUUGAAA: 0.198
UGGCCCUGGUGGCAUGCGGGGAGGAAGAGGUGGCCUCAUGGAUCGGGGUGGUCCCGGUGGAAUGUUCAGAGGUGGCCGUGGUGGAGACAG: 0.156
CACAGACAACACGCACCCACACAGACACAGAGGGAAGGGGUUGGGAUGGGGACAGGGUGCACAGCAGGGCGGGGUAGGAGCCCAGCCCCU: 0.566
UGGCCCUGGUGGCAUGCGGGGAGGAAGAGGUGGCCUCAUGGAACGUGGUGGUCCCGGUGGAAUGUUCAGAGGUGGCCGUGGUGGAGACAG: 0.0106
UCCUGUGCUACACAUCGUAUGUACCGAAUCGGGCCCCCGGGGCCCCCGGGCCCCCGGGGAAAGUAUUAUGUUACGCCGUUCGGAUCUGCA: -1.82
ACCAUGCAGGUGAAAAUCUUUGGGAAGUGGGGCAAGGGGGGGAUAGGGAGGGGGGUAACACUUUGGGAACAGGUGGUCCCAGGUCGUUUC: 0.396

Series 2
Target: Sal-like protein 4, full length isoform B (SALL4, Homo sapiens, UniProt Q9UJQ4-2, residues 1-616)
Technique: universal PBM
Molecule type: double-stranded DNA, one strand shown
Sample: in vitro
Tested at: not given
Setting: 8-mer, flanks averaged, mean of replicates
Direction: higher = stronger binding
Quantity: E-score
GGCATAAC: 0.15
CTGCTAGC: -0.23
CATAGACG: 0.12
ATCCAGGG: -0.136
GAATACTA: 0.245
GTCGCCGA: -0.22
ACAGCACA: 0.0291
CTCGGCCA: -0.142
GGTCAGAA: 0.0014
CAGTTTGG: -0.096
ACGAGACG: -0.153
ACTGTAAA: 0.257
ATTCTGTA: 0.127
CTGAAGCA: -0.0657
AATCAACT: 0.074
AGAACGGC: -0.176
AACTATGG: 0.111
GAGGGGCA: -0.119
GCACGGCA: -0.0639
GACACCGC: -0.286
CCAAAAGG: -0.0703
CTGACAGC: -0.316
CTCCCCTA: -0.107
CTTCTTGA: 0.104
TAATCCAA: 0.217

Series 3
Target: Interferon regulatory factor 7, full length, phosphomimetic (IRF7, Homo sapiens, UniProt Q92985, residues 1-503, S101K/S471D/S472D/S475D/S476D/S477D/S483D/S484D/S487D)
Technique: protein-binding microarray
Molecule type: double-stranded DNA, one strand shown
Sample: in vitro
Tested at: 250 nM
Setting: 60-bp whole probe
Together with: salmon DNA 0.4 mg/ml
Baseline: random background probes
Direction: higher = stronger binding
Quantity: log fluorescence
Constant ends, left off below: GCCTAGCAC … GTCTTGATTCGCTTGACGCTGCTG
Residues (chain): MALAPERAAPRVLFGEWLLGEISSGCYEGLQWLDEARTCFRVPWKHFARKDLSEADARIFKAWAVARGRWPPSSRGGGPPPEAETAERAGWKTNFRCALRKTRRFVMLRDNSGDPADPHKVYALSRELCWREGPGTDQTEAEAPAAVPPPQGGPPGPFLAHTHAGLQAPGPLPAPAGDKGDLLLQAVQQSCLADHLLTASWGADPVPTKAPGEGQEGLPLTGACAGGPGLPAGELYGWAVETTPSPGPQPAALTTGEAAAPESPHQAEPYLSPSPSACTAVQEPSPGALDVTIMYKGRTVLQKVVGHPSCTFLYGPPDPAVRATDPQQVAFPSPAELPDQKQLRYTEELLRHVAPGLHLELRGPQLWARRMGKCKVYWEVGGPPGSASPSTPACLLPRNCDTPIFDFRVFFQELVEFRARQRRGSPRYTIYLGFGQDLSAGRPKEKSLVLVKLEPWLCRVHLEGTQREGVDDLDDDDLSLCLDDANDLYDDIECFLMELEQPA
TCAGGTTTCGGACTGGGTTAGTGCTAG: 4.28 z-score
GCCGGTATCGGTATCGGGACGTGCTAG: 1.64 z-score
GACGATTTCGGGTATCCAGACGTGCTA: 0.605 z-score
TTAGATATCAGTTTCGATTCGTGCTAG: 12.4 z-score
TCAGTTACCCCTCATCAAACTGTGCTA: 0.564 z-score
GACGATATCGGGAATGGAGACGTGCTA: 0.103 z-score
TCACAATTCTTTTTATGACTGTGCTAG: 0.972 z-score
GACGGTAACGGGACTGGGGACGTGCTA: -0.715 z-score
TTAGAACTGACTATCGATTAGTGCTAG: 0.0622 z-score
GACGGACTGGGTCTCGGAACGTGCTAG: -0.0544 z-score
GACGGTCTCCTTATCCTAACGTGCTAG: 0.42 z-score
GACGGTTTCGACCTTCGGGACGTGCTA: 5.46 z-score

Series 4
Target: CCNA2, cyclin fold, Cln2 fusion (human)
Technique: yeast growth competition, sequencing
Sample: yeast
Setting: strong parent motif
Baseline: not given
Direction: higher = stronger binding
Quantity: normalised enrichment score
Parent: PKMYT1 docking peptide (human); SFEPRNLLSLFED; partner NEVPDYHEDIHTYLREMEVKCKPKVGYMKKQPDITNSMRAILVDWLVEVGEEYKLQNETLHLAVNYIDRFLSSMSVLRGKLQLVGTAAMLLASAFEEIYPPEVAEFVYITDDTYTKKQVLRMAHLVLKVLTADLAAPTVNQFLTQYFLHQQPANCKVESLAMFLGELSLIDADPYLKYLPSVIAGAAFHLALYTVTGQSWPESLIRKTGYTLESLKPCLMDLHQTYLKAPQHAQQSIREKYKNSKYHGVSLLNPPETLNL
R5W: -0.715
L10I: 1.5
L8P: -0.75
D13M: 2.68
L10K: 1.91
S1A: 3.2
S9F: 2.29
F11R: -0.921
S1C: 3.28
E12S: 1.4
P4E: -0.918
S9Y: 2.3
P4C: 0.0208
E3V: 4.56

Series 5
Target: RNA binding protein fox-1 homolog 2, RRM domain, GST-SBP tag (RBFOX2, Homo sapiens, UniProt O43251-10, residues 100-194)
Technique: RNA Bind-n-Seq
Molecule type: RNA
Sample: in vitro
Tested at: 365 nM
Setting: natural RNA segment, single round, ends assumed
Baseline: no-protein control
Direction: higher = stronger binding
Quantity: RBNS enrichment (R)
Constant ends, left off below: GGGAGUUCUACAGUCCGACGAUC … UGGAAUUCUCGGGUGCCAA
Target sequence (chain): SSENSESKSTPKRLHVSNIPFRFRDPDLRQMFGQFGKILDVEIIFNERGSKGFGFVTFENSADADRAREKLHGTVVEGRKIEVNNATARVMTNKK
ACUGUAGUAUUGGUGUCAUGGGAAUGUACGUUAUUUCCAAAGUCAUUUCAUUAAAGAUGAAAACUUUAUUUCUUCUGUGAUUUGUACUUACACUAAGUUUAGAUUAUCAC: 0.393
GGAUUUGUGUAGGCUGUAUUCCAGUUGGCUUUUUAGUAAUAGAAAUCCCUCAUAUGAUGUAUCAGAUACAAUUGAGGUUCUAAUCUAGUCUGUUAAUUUAUCUGAAAUUG: 0.681
AGCUGAGGCUGAUCCAGCUCCCCUGAAAUUCAGAGUGUUAACUUUGUAGACCCUGCACAAUCUCUUGGUGCUAUCUAGCCAUUACCCCCAUUUUUUUUUUAAAGGCCAUC: 0.678
CUUAACCUCCAAAGCCACAGAACUAGGGGCUCAGAGCCAGAGCUGGCAGCCGCCAGCCAAAAUGAUGCCAUUGCCUGAGCUGACAGCCAAGCCCUUCUGUGGGUCACCUU: 0.458
AAACUAAUAAAUAUUUUUUUAUGAAGAAGAAAAAUGUGUAGAUUACAUUUCACAUUUUGUAUUUUUUUUUAUGUGUGUGUGUCUGUAUUCUGGUGUUUGUAACACCAAAG: 0.513
AGUGUAUGUGGUCCAUUAGAAAGGUUAAUUCCAACAAAGCAUUUAGUUUACAGAUCAUAAUCCUAAGCAGUCAGGAGAGAAAUACGAACAGAAAUUACAUGAGGAAUAUU: 0.865
UAAGUUGUUUAUAUUUGGUAAAAGGUUCAUUUGUCCCUUUUAGCUCUUAAAUAUCUCGAUGUAUUUAAUGCCUUGUUUUCUCUCCUGCCGCAGGAUAAAGAAAAUGAUAA: 0.384
AGAUUGAAUAGGGUAAAAGAAAGUCUUUAAAUGCUAUCGCAUCCUAGACCCUCUUCCCACCUACUAUGGCAUUGCAUAUUAGUCUGUUGAGACAUUCAUUGUUGCUUGAC: 0.317
UUUCUAUCUGAGAGGUCCUAACCAUUACAGCUAUCACCCCUCGGCUGACAUGGUCUUUCAAGAUUCUUAGUAGGUCUCUCAGAAGCCAGUUCAUCUGGCCUUAACUGAAU: 0.22
CUGGUAUCUGAAUGUUGAUUCCUCAUUUAGGAGUUCAGCAUUAAUUUCCAAAAUUUUCAUGGGGCUUGUGGCAACACGGGCCGUGAAUCUGUGUAUAAAAUUUACUGGCC: 0.277
CCCAUGCAGUCAAAGCUUAUAAAGUUAUUUGCCUUAGGCAAAGCCAUUCAUUUCUUUUACCUAUAGUGAAAUUAUUGAAUAGUAGUUUUUCUGAACUGUUGGAUUCUAGG: 0.329
ACCACAGACAGUACCCACGCUACCAGUCUGAUUAUAAAGGGAGACACUUUAUUUUUUCACAAUUAAAUAAGAAUUGUAGAUUAAUACACCUCUAUCUUGCAUGGGAAGGA: 1.15

Series 6
Target: Histone acetyltransferase KAT6A, winged helix 2, GST fusion (KAT6A, Homo sapiens, UniProt Q92794, residues 85-181)
Technique: protein binding microarray
Molecule type: double-stranded DNA, one strand shown
Sample: in vitro
Tested at: not given
Setting: 8-mer, flanks averaged, mean of 2 arrays, mostly near background
Baseline: not given
Direction: higher = stronger binding
Quantity: E-score
Target sequence (chain): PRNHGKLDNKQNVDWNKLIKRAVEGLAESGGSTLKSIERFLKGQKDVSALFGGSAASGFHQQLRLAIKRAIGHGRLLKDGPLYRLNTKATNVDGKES
ATGTTGGC: -0.0793
GATGGGGC: 0.0606
ACGAAAAT: 0.0131
ATTATTAC: -0.0572
CCCCAATA: -0.194
CAGCGGAC: 0.145
ATGATGGG: -0.219
CAGCGGCA: 0.164
ATTTAGAA: 0.0512
AGCACGCA: 0.0796
GAAGATCA: 0.0168
CAAGTTAG: -0.197
TAGAGAGA: -0.0053
AACTCTCA: -0.0848

Series 7
Target: Cyclic AMP-dependent transcription factor ATF-1 (ATF1, Homo sapiens, UniProt P18846, residues 1-271, full length assumed)
Technique: protein-binding microarray
Molecule type: double-stranded DNA, one strand shown
Sample: in vitro
Tested at: not given
Setting: k-mer, scored over probes, only values ≥0.25
Direction: higher = stronger binding
Quantity: E-score
Target sequence (chain): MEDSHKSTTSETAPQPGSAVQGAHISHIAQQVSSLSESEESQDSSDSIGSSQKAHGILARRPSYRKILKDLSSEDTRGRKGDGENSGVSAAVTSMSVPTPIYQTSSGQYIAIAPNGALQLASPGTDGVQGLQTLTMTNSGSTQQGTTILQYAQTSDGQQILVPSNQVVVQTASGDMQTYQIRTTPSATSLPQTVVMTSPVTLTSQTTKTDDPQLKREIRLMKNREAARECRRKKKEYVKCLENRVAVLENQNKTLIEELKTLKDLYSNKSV
AACGCAT: 0.286
GGCGTCA: 0.396
CCTGACG: 0.324
CGTCAAA: 0.272
CTGACGC: 0.388
CGACGTC: 0.342
ACGTCGC: 0.282
ACATACA: 0.265
CAAACGA: 0.252
CATCACA: 0.334
ATGACAT: 0.3
ACCCCAC: 0.26

Excerpt of the above (series 7):
CTGACGC: 0.388
CGACGTC: 0.342
ACGTCGC: 0.282
ACATACA: 0.265
CAAACGA: 0.252
CATCACA: 0.334
ATGACAT: 0.3
